Measured values gathered from unrelated publications.
A part holds a random share of what one study measured. Substitutions count along the parent as printed.

Sample 1 — technique: protein-binding microarray; molecule type: double-stranded DNA, one strand shown; matrix: in vitro; tested at: 2540 nM top; notes: 60-bp whole probe; together with: salmon DNA 0.4 mg/ml; reference: random background probes; reading: higher = stronger binding; shared flanks, not repeated: GCCTAGCAC … GTCTTGATTCGCTTGACGCTGCTG
Target: Interferon regulatory factor 3, full length, phosphomimetic (IRF3, Homo sapiens, UniProt Q14653, residues 1-427, S386D/S396D/S398D/S402D/T404D/S405D)
Construct (chain): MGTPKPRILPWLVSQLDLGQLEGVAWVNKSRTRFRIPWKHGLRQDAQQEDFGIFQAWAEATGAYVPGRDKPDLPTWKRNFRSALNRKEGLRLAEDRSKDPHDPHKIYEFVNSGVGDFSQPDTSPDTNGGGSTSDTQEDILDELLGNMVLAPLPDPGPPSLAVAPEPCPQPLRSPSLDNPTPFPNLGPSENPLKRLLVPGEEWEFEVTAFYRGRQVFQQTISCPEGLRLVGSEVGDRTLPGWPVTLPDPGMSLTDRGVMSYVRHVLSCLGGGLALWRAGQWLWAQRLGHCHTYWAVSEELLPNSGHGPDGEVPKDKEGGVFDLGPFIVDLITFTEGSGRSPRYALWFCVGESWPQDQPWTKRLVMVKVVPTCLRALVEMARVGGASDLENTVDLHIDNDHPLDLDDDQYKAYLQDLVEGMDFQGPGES
Strand | fitted relative affinity [z-score]
TTAGGTTTCAGTTCCGGTTAGTGCTAG | 6.3
GACGGTTTCGGGTTTCGGTACGTGCTA | 6.28
TCATGGCTGACTTTGGAACTGTGCTAG | -0.88
TTATGTTTCCTTTCCCTTTAGTGCTAG | 9.17
TTAGGTACCGGACTGGGTTAGTGCTAG | 1.06
GACGGTGTCGACTATCGGGACGTGCTA | 0.749
TCACTTATGATATATATAACTGTGCTA | 0.624
GACGGTTTCGGTATGGGGACGTGCTAG | 6.92
TTAGGTCTCCGTCTCGGTTAGTGCTAG | 2.22
TTAGGTTTCGGACTCGGTTAGTGCTAG | 5.98
TTAGAACTGAGTTTCGATAAGTGCTAG | 1.92
TCATATATCTGTGTTATACTGTGCTAG | 0.503
TCAGGTGTTCTTTTCTGACTGTGCTAG | 1.14
TCAGTTTTCTCCATGGAACTGTGCTAG | 1.58
CCATCTCTCAAAAGTCACCCTGTGCTA | 2.23
TCAGCTTTCTTTTTGCAACTGTGCTAG | 2.2
TTAGATTTTGGGTTTCGATTAGTGCTA | 1.9
GACGGTATCGACACTGGGCACGTGCTA | 0.52
GAAGATTTCGGGACTGGAGACGTGCTA | 1.13
TTAGGTTTCCTTCTCCGTTAGTGCTAG | 9.53

Sample 2 — target: CCNA1, cyclin fold, Cln2 fusion (human); technique: yeast growth competition, sequencing; matrix: yeast; notes: strong parent motif; reference: not given; reading: higher = stronger binding
Starting sequence: RBL2 docking peptide (human); STTRRRLFVENDS; partner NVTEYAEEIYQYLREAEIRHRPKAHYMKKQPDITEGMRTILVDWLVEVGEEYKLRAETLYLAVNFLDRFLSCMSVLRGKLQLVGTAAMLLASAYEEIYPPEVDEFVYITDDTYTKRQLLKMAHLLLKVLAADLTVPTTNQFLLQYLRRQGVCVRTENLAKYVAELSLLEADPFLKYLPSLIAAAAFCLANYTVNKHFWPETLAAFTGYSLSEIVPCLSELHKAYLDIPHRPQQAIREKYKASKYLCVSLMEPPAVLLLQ
Variant | normalised enrichment score
STTRRRYFVENDS [L7Y] | 0.24
STTRRNLFVENDS [R6N] | 0.284
STTRTRLFVENDS [R5T] | 0.896
STTRRRLFVEKDS [N11K] | 0.66
STTRRRLFDENDS [V9D] | 0.465
LTTRRRLFVENDS [S1L] | 0.531
STHRRRLFVENDS [T3H] | 0.234
STTRRRLFHENDS [V9H] | 0.75
STTRRGLFVENDS [R6G] | 0.413
SKTRRRLFVENDS [T2K] | 0.838
STTRRILFVENDS [R6I] | 0.45
SWTRRRLFVENDS [T2W] | 0.492
STTRRRAFVENDS [L7A] | 0.773
SSTRRRLFVENDS [T2S] | 0.445
STTRRRLFVKNDS [E10K] | 0.209
STTRRRLFVENDD [S13D] | 0.772
STTRRDLFVENDS [R6D] | 0.369
STPRRRLFVENDS [T3P] | 0.0743
STTRKRLLVENDS [R5K F8L] | -0.158
STTRRRLFKENDS [V9K] | 0.444
STTRRRGFVENDS [L7G] | -0.332
STTRRRLPVENDS [F8P] | 0.498
STTRRRLFVENKS [D12K] | 0.77
SQTRRRLFVENDS [T2Q] | 0.941
STTRRRLFVLNDS [E10L] | 0.115

Sample 3 — technique: RNA Bind-n-Seq; molecule type: RNA; matrix: in vitro; tested at: not given; reference: input RNA pool; reading: higher = stronger binding
Target: RING finger protein unkempt homolog, zinc fingers 1-6, GST-SBP tag (UNK, Homo sapiens, UniProt Q9C0B0, residues 30-357)
Chain of UniProt Q9C0B0 (30-357, looked up): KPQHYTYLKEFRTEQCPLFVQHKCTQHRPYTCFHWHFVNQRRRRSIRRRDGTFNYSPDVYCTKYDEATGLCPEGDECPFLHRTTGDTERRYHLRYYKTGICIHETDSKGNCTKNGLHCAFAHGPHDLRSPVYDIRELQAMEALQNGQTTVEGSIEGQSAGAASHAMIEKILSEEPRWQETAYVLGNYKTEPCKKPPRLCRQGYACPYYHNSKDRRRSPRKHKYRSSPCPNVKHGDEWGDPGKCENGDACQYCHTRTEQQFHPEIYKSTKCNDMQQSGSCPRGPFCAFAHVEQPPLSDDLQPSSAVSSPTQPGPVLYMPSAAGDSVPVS
Notes: RNA with constant flanks, human-mouse chimeric sites, ends assumed
Shared flanks, not repeated: GGGAGUUCUACAGUCCGACGAUC … CAACAGAGGAUUGAGCAUCA
Strand | bound/input enrichment [ratio]
AACGUGGAGUUGAGUUCGCUGGCCCGGCUUCCCAGCUUGAAUAAACUCCGGAAGUUGGAACUUAGUGAUAAUAUAAUUUCUGGAGGCUUGGAAGUCCUGGCAGAGAAAUGUCCAAAUCUU | 2.05
GCAUAUGGUUAUCGAGGAAAGGACUGUAGAGCGAAUGUAUACCUGCUUCCCACAGGGGAGAUAGUUUAUUUUAUCGCCUCAGUGGUAGUACUAUUUAAUUAUGAGGAGAGGACUCAGCGA | 2.98
CAGGGCAUCAUCUCUCGUGCUGUUAGACACCUUUUUAAGAGUAUUGAUGAGAAAAAGACCUCAGCGAUUAAAAACGGGCUGCCCCCUCCUGAAUUCAAAGUGAAUGCCCAGUUCCUAGAG | 0.451
AGCACAACCCCAGCAAAGCUAAGAAAUCCUUGUACAAGUGAACAGAACUGCACCAGCCCAUUUAGCUACAAAAAUGUGCUUAGUCUUACUGACAGAGGAGAGUUUUUUAAUGAACUUGUU | 1.51
AAAGUGAUGACUAUGUUUGUCCAACGACAGGUGUUUGCGGAGAGCAAAGAUGAGAUUGCGUUAGUCCUGUUUGGUACAGAUGGCACUGAUAAUGCCCUUGCUGGCAAGGACCAGUAUCAG | 0.147
UAAGUCCUGUGCCAGCACUUCGCUCAUAAAGUUUUAAAUUCUGGACCAAUUGUGUUUGUUUCCUGAUUAUUGUAUCCAAUACUUUAUCUAGUAUGUAACUCACUCUUACUGAUAAUAAAA | 0.824
UUGAAAACUGAUUCAAGUAAGUUUGAGUAUCACAAUGUUAGCUUUCUAAUUCCAUAAAAGUACUUGGUUUUUACAGUUUAUAAUCUGCAAUCCAUCAAGCGCCAUUUAGAUCAGCUUACU | 0.345
UAAGUCCUGUGCCAGCACUUCGCUCAUUAUAUUUUAAAUUCUGGACCAAUAGUGUUUAUCUUUAGAAUAUUGUAUCCAAUACUUUGCCUAGUAUGUAACUCACUCUUACUGAUAAUAAAA | 6.32
GAUAAGAAAAACUUGUUGGAGACCCGCUUGCAUGUCACUGGUAGAGACCUGAGGUGUCAAAUAGCUGAAACUUUCGGACUUCAAGAAAAUUACAUCAAGAUCGUAAUAAAUAAGAAACAG | 0.301
GAAACUAUUCCUAAAGAGGAGAAAGCUGAAAAGGAAGCUCGGAGACCGUCUCUCGAGAAACAUAGAAAAGAAAAGCCUUUUAAAACCGGGAGAGGCAGAAUUUCCACUCCUGAAAGAAAA | 0.463

Sample 4 — technique: EMSA with sequencing; molecule type: double-stranded DNA, one strand shown; matrix: in vitro; tested at: 10 and 20 nM; reference: negative control set to 0; reading: higher = stronger binding
Target: Hepatocyte nuclear factor 3-alpha (Foxa1, Mus musculus, UniProt P35582, residues 1-468, full length assumed)
Notes: whole designed probe, mean of two concentrations, ends assumed
Shared flanks, not repeated: GTGAGCGGTGCCCATTGATGGGGAAC … TTTCACTGGGATCGTGGGGAC
Construct (chain): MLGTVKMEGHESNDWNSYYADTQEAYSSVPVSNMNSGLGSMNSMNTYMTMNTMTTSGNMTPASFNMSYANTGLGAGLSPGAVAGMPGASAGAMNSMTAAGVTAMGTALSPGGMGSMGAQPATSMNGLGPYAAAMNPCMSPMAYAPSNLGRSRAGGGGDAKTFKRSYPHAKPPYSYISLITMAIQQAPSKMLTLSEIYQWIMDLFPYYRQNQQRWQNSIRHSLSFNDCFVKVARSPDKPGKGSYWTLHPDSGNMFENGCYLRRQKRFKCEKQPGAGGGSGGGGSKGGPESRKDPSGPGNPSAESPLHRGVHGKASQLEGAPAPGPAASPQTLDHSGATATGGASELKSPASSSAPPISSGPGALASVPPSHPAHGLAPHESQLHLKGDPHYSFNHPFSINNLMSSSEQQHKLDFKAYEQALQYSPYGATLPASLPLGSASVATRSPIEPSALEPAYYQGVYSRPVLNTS
Strand | normalised bound fraction [ratio]
TGTATAAAGCAATTTATTTTGGAAGAGTAGGCTGCTCTTGAATTGTTTTAAGTAATGGTGATATTTTAGGAAATAAGTGGCAAAGTCACAAAGTAATCTGGTCCACAGTACAACCTTGTCATTTCAATACAGTAACCTTATCTAGATATCGTATTCCACTAGTATTGCCAAATACGATATTTGAGGAATATCA | -0.0159
ACTGCTCACCACAGTTTTAAAGCTTTGCCTCTACCTGAAAACCAAACTGGATATGCAGTTAAGTGGAGAATTTAATCTTCCTTTAAAGACAATGCAAACAATTGGTGCCCCTTTAAAACTCGCTTTCTTGTTGAAAGTGAATATTTCTTTTGGATCATTCAAAAACTTCAAGTTTCTTCTGTGATTGTGTACA | 0.364
GCCTAATTTGTCTCTTCCAGTAAAAGTATTTGAGAAATTTTCCATTGCCCAATACCTTCCCATGATGGAAAATACACTGCATGGAAGGTATGTGTAATTTTTTGATTCGTGTTTTACTGATTTCAGTGTCACAACCTAGCAATCATTAACACTTCGAAAAACATACACCTGGTTAGTTGTTTCCAAAGTACAT | -0.0236
GGCACCTGCCCTTCTGGCAACTTCTTGGAAACAGTTGGCAGTGTTTGCTTCCTGACTCCTAGCAGGCCGCTGGGGTGCAGCTATTGTGTTTAAGTAAACAGGCCACTCGCCTATTCAGCTTGGCAGCTTGATAGATGCCTACGCCTAGATCTTGTCAAATCGGTTTGTGGTTGAGTGGCTGCCAGGCCTAGAG | 0.369
GAACAGATGGATGCAGACACAGCGTTTGGTTCTGAAGGTTTTTAAGAGTTATGGCTTCATCTCTTGATCAGGCCAACAAGGCCTACTACCCTATGTAAACAACGGCTTTCCCTCAAAGGGAGGGCCCCACACTGCTCTCCACTCTTATCATTTTGTGGCTCTCTCCTCCTCACCCACCCACCCCAATCCTGGC | 0.454
ATCTTCCCCCTCTTCCTTGCCCCACCAGCTCACCTTCCCGGGTTATTTGCAGATAGTATTTATTTTCAAGCCGGCATTCGTTAACCCTCTTCTGGCGCAAACTGCACATTGGTCTGGATGAATCATGGTCCTTTGGCGACGCCAGGCTCCGGGAGAGCAAAGCACCGTGTCAGGGCCATGATCCGGGGTGGCC | 0.172
TCCTTTATCCCAACATGTTTATACAGACAAAACCAGGTTAAAATCGACACAAGGTCAACTTGAAATGGGGAAGAGGAAGGTAGACGTCACAAAATAAACATGAAGTCTTGTGTACAAGCATCTGCAGAAGAGTTCAGCCTCACCACTTGGGTAATGCTGTTGGAATGTGGTCTGGGTTCACTGTATTTGAATG | 0.379
TAAAAATGCAACTATAAGTTAAGTCTAACTAATAAAAGTGTTCATTAGATGAGAACGAGAACGTCTTATAGAAAAATAGATGGAAATACTATGTAATCTATGAGTTAAAATCGCAGATTGAAGTGAAAAAAATACTAGCTAGATGTAAGACATGAACCTAGAGCAAATGAAATGCAGAAAGTTAAAAAGAGAA | -0.0183
